Assay results pooled from the literature.
Parts stem from different laboratories: compare values within a part only.

Sample 1 — method: protein-binding microarray; form: double-stranded DNA, one strand shown; sample: in vitro; concentration: 250 nM; setting: 60-bp whole probe; with: salmon DNA 0.4 mg/ml; reference: random background probes; reading: higher = stronger binding; measurement: log fluorescence; constant ends, left off below: GCCTAGCAC … GTCTTGATTCGCTTGACGCTGCTG
Target: Interferon regulatory factor 5, full length, phosphomimetic (IRF5, Homo sapiens, UniProt Q13568-2, residues 1-514, K96S/S451D/S453D/S456D/S462D)
GGCGGTTTCCTTCTCCTGACGTGCTAG: 0.716 z-score
TCACTTTCCTTCTTGAAACTGTGCTAG: 2.76 z-score
TCATCATTGCCTATTTTTCAGTGCTAG: 1.01 z-score
GACGGTTTAGGTCTCGGGACGTGCTAG: -0.0947 z-score
TTAGATCTCAGTATCGATGAGTGCTAG: 4.79 z-score
GACGGTTTCGACACTGTGGACGTGCTA: 4.21 z-score
TTAGGACTGCTTATCGTTTAGTGCTAG: 0.317 z-score
TCATCCTCCTCTCTCTTACTGTGCTAG: 0.429 z-score
TCACATTTTAGTTTTCAACTGTGCTAG: 1.35 z-score
TCCCTTATAAATAGCACAGGGTGCTAG: 0.359 z-score
TCACATTTTGGTTTTCCACTGTGCTAG: 1.29 z-score
GACGATTTCGGGCCTGGAGACGTGCTA: 1.32 z-score
TTAGAACTGGGGTAGCGATTAGTGCTA: -0.182 z-score
TCATGTATGGATGTGTCACTGTGCTAG: -0.0313 z-score
TTAGATTTCGGGTTTCGATTAGTGCTA: 8.9 z-score
TCAGCTGTTTTTCTCACACTGTGCTAG: 0.692 z-score
TTAGGACTGGGGTATCGGATAGTGCTA: 0.334 z-score
TTAGATCTCAGACTGGATGAGTGCTAG: -0.251 z-score
GAAGATTTCAGTATCGAGACGTGCTAG: 3.85 z-score
TCAGAAATCACCCTTGGAACTGTGCTA: 0.153 z-score
GACGGTTTCCTACCGCTGACGTGCTAG: 0.0434 z-score
TTAGATATCAGACTGGTTTAGTGCTAG: 0.365 z-score
GACGGTTCCGGTATCGGGACGTGCTAG: 1.77 z-score
TTAGATCTCCTACTGCTTTAGTGCTAG: -0.000258 z-score
TCAGCTTCTTTTTTATTACTGTGCTAG: 0.682 z-score

Sample 2 — method: EMSA with sequencing; form: double-stranded DNA, one strand shown; sample: in vitro; concentration: 10 and 20 nM; reference: negative control set to 0; reading: higher = stronger binding; measurement: normalised bound fraction
Target: Hepatocyte nuclear factor 3-alpha (Foxa1, Mus musculus, UniProt P35582, residues 1-468, full length assumed)
Setting: whole designed probe, mean of two concentrations, ends assumed
Constant ends, left off below: GTGAGCGGTGCCCATTGATGGGGAAC … TTTCACTGGGATCGTGGGGAC
Target sequence (chain): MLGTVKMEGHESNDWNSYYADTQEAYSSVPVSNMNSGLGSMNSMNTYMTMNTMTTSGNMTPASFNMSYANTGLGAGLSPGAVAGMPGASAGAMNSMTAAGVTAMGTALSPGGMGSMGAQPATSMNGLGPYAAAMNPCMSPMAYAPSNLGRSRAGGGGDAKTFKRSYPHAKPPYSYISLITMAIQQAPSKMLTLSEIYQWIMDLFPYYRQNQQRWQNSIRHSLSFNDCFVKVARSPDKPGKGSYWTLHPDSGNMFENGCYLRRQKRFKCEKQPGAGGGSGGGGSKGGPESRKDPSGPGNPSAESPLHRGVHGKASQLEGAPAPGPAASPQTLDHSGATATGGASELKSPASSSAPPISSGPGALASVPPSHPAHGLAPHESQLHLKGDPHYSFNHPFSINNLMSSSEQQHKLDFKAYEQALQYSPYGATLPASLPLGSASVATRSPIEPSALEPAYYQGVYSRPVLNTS
TAGCTTTGAAAACTGTGAAAGGGGATAACCCATAATTTCTTTTTTGATAAAATGACATGCCCCAGGGGTGAGCTAGGTTTGCTTTGACAAGAAAGTAATCTAGGAGCAAGTGAAAGGAAATGAAAAATATATTACCAAACTCTCATCTTTCAGCTGCTGATGCTGCCTATTGTCAGCTGCAGCAGAGTGTAGA: -0.0424 ratio
TCCTCATTAAATTTCAAGTTTCCACAAAATAAGAAAAGAAACAACTAAAGAAGAAATTGTTGGAAGGCATGGAGCAAAGTGTAAGAACAACTAAGTAAACATGTACATTTTGCATTTTTAAAAAATTCAGTGGCCATAATACCACTGGCCAACAGGCTGATCAAATAATCCCTGAAACAAAGAGTTATATGTT: 0.442 ratio
CCATCTCAGCTGAGGGTACTATCATCCACCCTGTGGCCACATCCAGGAATGTGTGTATCACCTGGGCTCTGAGGATGACATCAGCTCTTCTAAGTCATCTGAATGTCGGGTCTGTTCTAAAAGTCTCATCTGACAAGGAGATCTTTAAGGCTTTACTCCCTTAAAGGCTTTACTCCCATCATGATGGGATAAC: -0.0816 ratio
TGAGGACTGGAACATTATAGTTTTATATCTCACACTAACAGAAAACTCTTTGATATATTGCAATTATTCAATGCATGTTTAATAAATAATAAGTAAACATGGCATAAAAATAATTTTAATTGTGGACTTTTATTATTAAAACACTTTTAATTATTATTTAATTAACAATTTTAATTATGAAATCTGCATTCAA: 0.363 ratio
AATGATTAGTTTACACATATACATCGCTTTTGAAGGCCCCCAAACACCAGGGGACCATAGAGATCCTTTGGACTTCATGATTCTGGGAGTGTTTGTTTGCACTGATACCTGAAGAAATAGATCTTGAGGGCCTACATTCCAACCTCTGGGCTGAAGTACCAACCTCGGGGAGAAGGAAACAAAGATCACAATA: 0.305 ratio
CCATATTAAGCCATAAATGTGAGTTGCTGTAAAATAAAAAGTAATAAAGTATTTAAAGAGAAAATAATTTCTGTTGAGATTTTAAAGTTTTTCCTGTTTACATTGTTAGTCAATAAATATCTTTAATTCAAAGGTTAAGTTTATAGGATAATCCTCCTTGAGAAGGGAAGGCATATCTAAGTGTTAACAAAAA: 0.305 ratio
ATCTTCCCCCTCTTCCTTGCCCCACCAGCTCACCTTCCCGGGTTATTTAAATAAAAGAGCTTAAAGGAAGCCGGCATTCGTTAACCCTCTTCTGGCGCAAACTGCTGTTTGCTCTGGATGAATCATGGTCCTTTGGCGACGCCAGGCTCCGGGAGAGCAAAGCACCGTGTCAGGGCCATGATCCGGGGTGGCC: 0.244 ratio
AGGTGAATTGGCTGCTTCCATCCTGGCTTGGAACTTCAGACATAGAAGCCTTGGGACTTTCTCAGGACTTTCTCCAGACTGACTCATGCTTCAGCAAACAAGCATCTCTGTGGATCACGTGACCTTAGCCAGGGATGTTGGTGAAACTGTGTGTTGGTCTAGGTACCTAGCCCATGCTAGGTGCTCATCGAAT: 0.155 ratio

Sample 3 — method: protein binding microarray; form: double-stranded DNA, one strand shown; sample: in vitro; concentration: not given; reference: not given; reading: higher = stronger binding; measurement: E-score
Target: Histone acetyltransferase KAT6A, both winged helices, GST fusion (KAT6A, Homo sapiens, UniProt Q92794, residues 1-181)
Setting: 8-mer, flanks averaged, mean of 2 arrays, mostly near background
Residues (chain): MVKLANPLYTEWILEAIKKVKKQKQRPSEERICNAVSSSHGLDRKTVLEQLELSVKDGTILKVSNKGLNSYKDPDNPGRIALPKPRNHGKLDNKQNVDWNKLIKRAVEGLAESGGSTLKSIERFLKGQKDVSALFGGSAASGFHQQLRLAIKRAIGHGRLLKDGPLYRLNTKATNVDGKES
AACAGTCC: -0.191
CTTAATCC: -0.0386
TGAGCGAA: 0.148
GTCCGCAC: 0.195
AGCAATTA: 0.00762
CATGGTCC: -0.0821
GCTTACAA: -0.0581
CTAGAGTC: -0.0245
TATTTTCA: -0.0179
AGACGGCT: 0.196
CAGGAATG: -0.171
GCTCACTA: -0.0437
CGTATTTA: -0.00713
GTCTCATA: -0.0837
TAAACGAA: -0.0127
CGGTTAGA: 0.0642

Sample 4 — method: RNA Bind-n-Seq; form: RNA; sample: in vitro; concentration: 365 nM; reference: no-protein control; reading: higher = stronger binding; measurement: RBNS enrichment (R)
Target: RNA binding protein fox-1 homolog 2, RRM domain, GST-SBP tag (RBFOX2, Homo sapiens, UniProt O43251-10, residues 100-194)
Setting: natural RNA segment, single round, ends assumed
Constant ends, left off below: GGGAGUUCUACAGUCCGACGAUC … UGGAAUUCUCGGGUGCCAA
Target sequence (chain): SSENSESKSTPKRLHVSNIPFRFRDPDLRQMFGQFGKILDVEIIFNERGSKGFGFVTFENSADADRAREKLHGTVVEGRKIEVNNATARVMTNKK
GUACAUACCAGUUUCUGAUGUUUCAGGCAGGAGUGGGGUAAAUAAGUGUGACCACUUAAAGCUGCUCGUUAGCAUGGAAGACUUCUCCAUUCUAUCUUUGUAAAACAGAC: 0.623
UGGUUUUUAACCCUUUUAGACUAAGCCUCAAAAAUAUUAUCAUACCUGUGUACUUGUACAUUAAAAACAAAAUUAUUGCUGAGUAAGAAGAUAUUUAAUAUAUGAAACUC: 0.403
AUUUACAUCGGAAAAGUCUCUCCCUACCUUAAUCCCCCAUUCUCUUGCUUUCAAAAUACAAGCACAGCAGUCCUUGAAUGGCUGUUGACCCAGGGCACCUAGCUGUCCCU: 0.824
GUGGCUGUCCAUCCCUGGAUAGCUAUUUGCACGAAUCAUGGACAUAAAUCCAAGUUGAAGAAGAUCACAUUCUGACUCAUGUUCAUUUAUGCGCUAAUGUUCCCCUGUCA: 0.432
CACAAAACUGACACCCCAUCUGGGCUGCGCUCCCCGGGGGGCCUGCAGACCCCAGGACUGCUGGCAGAUUAGUUGCCUGCCAGGAGGAAUUACUUUCCUUGAUCAAAAAA: 0.528
UAACCACUUUAUGGGCUUUUUGUUUUGCUUUGGCCCUUUGCUGCCAUUAUUACACACAGGAGAGCCAUUAUCAAAUGUUUUACAGAACAGCAGCGUUAGAGAGUGGGUUU: 0.362
UGAAGAUCUUGGAUGAGCCCGUGGUCUUUUGUGUCAUCUACGAAGCUGUGGGACUAAGCAGCUGUAGGACCUCAGAAUGGGCAAGGACAGUCUGUGAGAGGGAGUCUCUC: 0.466
GAACUCACUAUGUAGAUCAGGCUGGACUGAACUCACAAAGAUCCACCUGCCUCUGCCUCACAAAUGCUGGGAUAAAAAGCAUGAACCACCAGGCCCAGCAAAGAGGGCUA: 3.68
UCUUUUUAAACAAAAAUUAUUUUGCCUACAGAAAGGUUGUAGUUUUGAGCACAUGUUAAUUUUUUUCCCUCUUUCCCCACUUUUAUUUUUUUAAAUAAGGGAUAACAUAU: 0.682
GGCAUGGUAUAUUAAAAUGAUUUUACUAAGAGAAAAAAUAUUUUUUUAAGAAUGCUCAGAAGAAAUUGAUAAUCUGUGUGAAUAUGUUUUAGAUGUUUAUAUACCUUUUG: 6.45
UUGUUAAAAUAAAAGGUGUCACUGUGGUAGGCAUUUGGCAUAUUUUGUGGACUCAGUCAAGCAACCACAGUCUGUUAAUCAUUUCUCUAUGCUCAGAUGUCAGAUCCUCU: 0.44
CAGAUUACAAGCCUCCAGCAACACGUUGAGCGAUAAAGUAAUGAUCCCCCAAGACGAAUAUCCAGAAAUCAAUUUUGUGGGGCUCCUAAUUGGACCCAGGGGGAACACCC: 0.343
